{"data": "Results of several laboratories", "CYP3A4": "Cytochrome P450 3A4 (CYP3A4, Homo sapiens, UniProt P08684)", "note": "Compare with care: the assays were run in different laboratories. ± gives the spread as reported.", "UniProt P08684, sequence (whole entry, looked up)": "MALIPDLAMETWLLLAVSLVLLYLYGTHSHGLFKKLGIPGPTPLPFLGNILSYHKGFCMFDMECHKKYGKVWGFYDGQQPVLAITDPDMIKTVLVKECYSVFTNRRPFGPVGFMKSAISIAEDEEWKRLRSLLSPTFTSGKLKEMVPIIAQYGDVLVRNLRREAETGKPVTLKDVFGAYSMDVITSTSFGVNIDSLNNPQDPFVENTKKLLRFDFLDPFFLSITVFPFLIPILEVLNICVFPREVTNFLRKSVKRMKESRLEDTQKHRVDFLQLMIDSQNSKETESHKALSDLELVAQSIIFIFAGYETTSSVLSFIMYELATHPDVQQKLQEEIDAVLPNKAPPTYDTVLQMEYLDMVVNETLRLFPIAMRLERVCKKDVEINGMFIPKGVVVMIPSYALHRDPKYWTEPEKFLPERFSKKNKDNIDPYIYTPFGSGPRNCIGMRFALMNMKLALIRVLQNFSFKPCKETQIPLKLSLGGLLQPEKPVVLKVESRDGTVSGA", "UniProt P35869, sequence (whole entry, looked up)": "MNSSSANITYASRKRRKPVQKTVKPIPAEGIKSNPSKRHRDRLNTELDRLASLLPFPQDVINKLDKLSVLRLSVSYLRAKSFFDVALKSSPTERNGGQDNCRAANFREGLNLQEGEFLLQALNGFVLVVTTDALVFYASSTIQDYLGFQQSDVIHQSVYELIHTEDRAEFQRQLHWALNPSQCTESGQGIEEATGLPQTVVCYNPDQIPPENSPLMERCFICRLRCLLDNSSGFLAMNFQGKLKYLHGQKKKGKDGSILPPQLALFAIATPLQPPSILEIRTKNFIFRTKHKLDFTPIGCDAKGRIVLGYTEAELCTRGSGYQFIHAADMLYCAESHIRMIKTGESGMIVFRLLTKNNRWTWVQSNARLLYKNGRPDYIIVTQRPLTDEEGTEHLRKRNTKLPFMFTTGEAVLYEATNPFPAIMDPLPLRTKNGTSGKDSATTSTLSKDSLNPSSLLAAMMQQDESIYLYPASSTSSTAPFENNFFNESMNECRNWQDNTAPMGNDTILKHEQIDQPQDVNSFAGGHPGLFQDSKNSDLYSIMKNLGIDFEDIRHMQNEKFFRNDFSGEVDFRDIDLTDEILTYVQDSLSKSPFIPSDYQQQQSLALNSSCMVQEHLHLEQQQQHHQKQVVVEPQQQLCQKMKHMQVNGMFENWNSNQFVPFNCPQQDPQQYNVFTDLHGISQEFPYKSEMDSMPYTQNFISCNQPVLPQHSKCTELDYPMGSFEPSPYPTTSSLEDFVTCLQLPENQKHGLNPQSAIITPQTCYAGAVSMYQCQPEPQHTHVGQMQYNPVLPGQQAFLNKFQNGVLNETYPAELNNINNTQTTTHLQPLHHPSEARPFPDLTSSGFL", "UniProt O70423, sequence (whole entry, looked up)": "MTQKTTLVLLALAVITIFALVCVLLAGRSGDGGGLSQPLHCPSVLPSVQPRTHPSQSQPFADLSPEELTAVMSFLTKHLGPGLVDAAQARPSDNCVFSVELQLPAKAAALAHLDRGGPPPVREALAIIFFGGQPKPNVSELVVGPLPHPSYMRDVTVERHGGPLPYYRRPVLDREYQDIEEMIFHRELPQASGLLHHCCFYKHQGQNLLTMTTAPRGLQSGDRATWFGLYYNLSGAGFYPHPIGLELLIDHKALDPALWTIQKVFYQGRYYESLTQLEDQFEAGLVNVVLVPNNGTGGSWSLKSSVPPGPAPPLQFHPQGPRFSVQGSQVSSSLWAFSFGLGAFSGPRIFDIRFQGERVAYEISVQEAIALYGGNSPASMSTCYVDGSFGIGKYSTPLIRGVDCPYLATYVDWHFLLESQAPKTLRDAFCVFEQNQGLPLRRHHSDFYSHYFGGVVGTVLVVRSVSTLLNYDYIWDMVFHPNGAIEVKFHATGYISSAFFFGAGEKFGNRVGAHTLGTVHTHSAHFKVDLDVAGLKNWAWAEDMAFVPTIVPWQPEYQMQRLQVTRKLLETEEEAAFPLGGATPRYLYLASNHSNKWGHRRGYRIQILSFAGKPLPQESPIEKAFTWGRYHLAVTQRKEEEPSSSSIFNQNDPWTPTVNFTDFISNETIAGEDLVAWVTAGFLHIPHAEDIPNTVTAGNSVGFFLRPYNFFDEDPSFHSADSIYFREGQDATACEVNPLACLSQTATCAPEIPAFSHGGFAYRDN", "UniProt P50613, sequence (whole entry, looked up)": "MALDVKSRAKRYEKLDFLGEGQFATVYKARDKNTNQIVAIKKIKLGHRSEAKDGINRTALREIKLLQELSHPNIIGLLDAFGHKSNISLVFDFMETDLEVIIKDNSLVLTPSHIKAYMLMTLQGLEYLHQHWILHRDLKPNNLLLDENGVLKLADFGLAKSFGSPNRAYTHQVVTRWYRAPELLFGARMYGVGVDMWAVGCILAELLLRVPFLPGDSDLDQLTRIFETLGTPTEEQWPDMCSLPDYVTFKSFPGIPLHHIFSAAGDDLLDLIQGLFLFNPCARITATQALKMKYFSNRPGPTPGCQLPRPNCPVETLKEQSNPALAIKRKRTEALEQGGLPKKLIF"}
{"Structure (SMILES)": "CC[C@H]1[C@@H](O)[C@@H]2[C@H](CC[C@]3(C)[C@@H]([C@H](C)CCNC(=O)NS(=O)(=O)c4ccc(C(C)(C)C)cc4)CC[C@@H]23)[C@@]2(C)CC[C@@H](O)C[C@@H]12", "tested on": "CYP3A4", "test system": "human, plasma", "setting": "arithmetic mean, with: fluconazole", "quantity": "Tlast", "value": "120 h"}
{"Structure (SMILES)": "Cc1cc(Nc2ncnc3ccc(NC4=NC(C)(C)CO4)cc23)ccc1Oc1ccn2ncnc2c1", "tested on": "CYP3A4", "test system": "human, plasma", "setting": "oral, 300 mg, day 1, single dose alone", "quantity": "AUC(0-last), mean", "value": "3470 ng·h/mL"}
{"Structure (SMILES)": "C=CC(=O)N1C[C@H](Nc2ncnc3[nH]ccc23)CC[C@@H]1C", "tested on": "CYP3A", "assay": "substrate", "test system": "human, plasma", "setting": "oral, single dose, with: itraconazole multiple doses", "quantity": "AUC(0-t)", "value": "304 ng·h/mL"}
{"Structure (SMILES)": "NC1(C(=O)N[C@@H](CCO)c2ccc(Cl)cc2)CCN(c2nc[nH]c3nccc2-3)CC1", "test system": "metastatic CRPC patients", "setting": "400 mg b.i.d., any grade, treatment-related, with: enzalutamide 160 mg daily", "quantity": "incidence of Dysgeusia", "value": "0%"}
{"Structure (SMILES)": "CCCOC(C(=O)OC1CCN(C)CC1)(c1ccccc1)c1ccccc1", "tested on": "H+/organic cation antiporter", "assay": "cell uptake", "test system": "hCMEC/D3", "quantity": "intrinsic clearance", "value": "217 µL/min/mg protein"}
{"Structure (SMILES)": "O=C(O)[C@H]1O[C@@H](Oc2cc3oc(-c4ccccc4)cc(=O)c3c(O)c2O)[C@H](O)[C@@H](O)[C@@H]1O", "tested on": "Caco-2 monolayers", "assay": "apical to basolateral transport", "setting": "100 µg/mL, 2 h", "quantity": "amount transported", "value": "8.56 ± 0.01%"}
{"Structure (SMILES)": "NCc1cc2c(cc1F)C(=O)N(C1CCC(=O)NC1=O)C2 (stereo not drawn)", "tested on": "Amine oxidase [copper-containing] 3 (Mus musculus, UniProt O70423)", "assay": "substrate, LC-MS/MS", "test system": "recombinant mouse enzyme", "setting": "10 µM, 4 h, pH 7.4", "quantity": "concentration", "value": "2400 nM"}
{"Structure (SMILES)": "Cn1cc(-c2ccc(-c3cncc(Cl)c3N3CCC4(CCNC4=O)CC3)cc2)cn1", "tested on": "COLO 205", "assay": "gene expression, microarray, item: PDE3A mRNA", "setting": "concentration not given, 6 h", "scale": "relative to: untreated cells", "quantity": "log2 fold change", "value": -2.77}
{"Structure (SMILES)": "CCCCNc1ccc(C(=O)OCCN(C)C)cc1", "tested on": "H+/organic cation antiporter", "assay": "cell uptake", "test system": "hCMEC/D3", "quantity": "intrinsic clearance", "value": "19.8 µL/min/mg protein"}
{"Structure (SMILES)": "O=C(c1cccc(Cl)n1)c1c[nH]c2ccccc12", "tested on": "Aryl hydrocarbon receptor (AHR, Homo sapiens, UniProt P35869)", "assay": "reporter gene, agonist, XRE luciferase", "test system": "HepG2", "setting": "10 µM", "scale": "relative to: ITE", "quantity": "activity at 10 µM", "value": "158%"}
{"Structure (SMILES)": "C=C(F)C(=O)N1CCN(c2nc(OC[C@@H]3CCCN3C)nc3c2CCN(c2cccc4cccc(Cl)c24)C3)C[C@@H]1CC#N", "tested on": "CYP3A4", "assay": "substrate", "test system": "recombinant human CYP isoforms", "quantity": "fraction metabolized", "value": "72%"}
{"Structure (SMILES)": "CC[C@@H]1[C@H](F)C(=O)N[C@@H]1COc1nccc2cc(C(N)=O)c(OC)cc12", "tested on": "Cyclin-dependent kinase 7 (CDK7, Homo sapiens, UniProt P50613)", "assay": "ATP-site probe binding, ActivX profiling", "test system": "THP-1 cell lysate", "setting": "0.01 mM, Lys2 site", "quantity": "inhibition", "value": "-3%"}
{"note": "Some of these lines once more:"}
{"Structure (SMILES)": "C=C(F)C(=O)N1CCN(c2nc(OC[C@@H]3CCCN3C)nc3c2CCN(c2cccc4cccc(Cl)c24)C3)C[C@@H]1CC#N", "tested on": "CYP3A4", "assay": "substrate", "test system": "recombinant human CYP isoforms", "quantity": "fraction metabolized", "value": "72%"}
